# Experimental data from different studies.
# Each numbered part is a random draw from the data of one study; scales do not carry over between parts. Changes are numbered by the printed parent chain.

# Block 1
# Target: CCNE2, cyclin fold, Cln2 fusion (human)
# Technique: yeast growth competition, sequencing
# Medium: yeast
# Notes: weak parent motif
# Relative to: not given
# Direction: higher = stronger binding
# Starting sequence: RB1 docking peptide (human); PKPLKKLRFDIEG; partner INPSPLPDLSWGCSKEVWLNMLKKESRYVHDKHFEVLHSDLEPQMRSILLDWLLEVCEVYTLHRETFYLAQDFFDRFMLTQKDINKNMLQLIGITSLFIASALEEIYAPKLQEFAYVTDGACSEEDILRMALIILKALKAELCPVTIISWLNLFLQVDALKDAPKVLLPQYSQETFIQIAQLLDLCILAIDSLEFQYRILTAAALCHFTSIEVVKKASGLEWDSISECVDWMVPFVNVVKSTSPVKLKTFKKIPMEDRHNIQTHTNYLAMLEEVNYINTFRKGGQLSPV
Substitution,normalised enrichment score
D10L,0.749
D10F,0.787
K5A,0.0867
P3L,0.692
P1L,0.566
K6Q,-1.12
F9L,0.714
G13Y,-0.00714

# Block 2
# Target: Sal-like protein 4, full length isoform B (SALL4, Homo sapiens, UniProt Q9UJQ4-2, residues 1-616)
# Technique: universal PBM
# Form: double-stranded DNA, one strand shown
# Medium: in vitro
# Concentration: not given
# Notes: 8-mer, flanks averaged, mean of replicates
# Direction: higher = stronger binding
Sequence,E-score
ATTCGACC,-0.0856
CGACTAAC,-0.0188
GTGAACTA,0.12
GCACTCAC,-0.159
ACATGAGA,0.191
CGAGCTTA,-0.103
ACGATTCA,0.0421

# Block 3
# Target: ABI1, truncated, D143A, DHFR fusion (Arabidopsis thaliana)
# Technique: DHFR PCA, deep sequencing
# Medium: yeast
# Notes: methotrexate growth selection, single substitutions
# Together with: (+)-ABA 0.032 µM
# Relative to: wild-type fitted maximum
# Direction: higher = stronger binding
# Starting sequence: PYL1, truncated, DHFR fusion (Arabidopsis thaliana); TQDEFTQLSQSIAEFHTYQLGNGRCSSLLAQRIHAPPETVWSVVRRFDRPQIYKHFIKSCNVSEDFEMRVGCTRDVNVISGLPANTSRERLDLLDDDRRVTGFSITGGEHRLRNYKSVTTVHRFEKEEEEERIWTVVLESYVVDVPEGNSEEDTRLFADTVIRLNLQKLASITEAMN; partner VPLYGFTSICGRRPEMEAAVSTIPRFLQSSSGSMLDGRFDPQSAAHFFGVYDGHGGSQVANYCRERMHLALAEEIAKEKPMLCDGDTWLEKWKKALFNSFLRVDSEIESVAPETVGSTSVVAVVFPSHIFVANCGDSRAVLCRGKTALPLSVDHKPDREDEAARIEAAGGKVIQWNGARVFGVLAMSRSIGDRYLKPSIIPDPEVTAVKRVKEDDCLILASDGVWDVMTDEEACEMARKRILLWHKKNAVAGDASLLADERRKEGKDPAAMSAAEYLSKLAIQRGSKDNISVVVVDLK
Substitution,relative binding score [%]
S63W,-4.34
N149P,-0.206
T120I,5.34
G107E,23.9
Q10N,27.8
R32G,3.29
S26V,0.427
F15Q,-8.36

# Mixed results
Molecule,target,test,system,conditions,scale,endpoint,value
"PhoQ, residues 284 288 289 292 302 303 AQGLTV","PhoP, residues 12 14 15 18 19 STWGI (Escherichia coli, UniProt P23836)","Sort-seq, measured: YFP reporter",E. coli,"PhoQ-PhoP variant library, together with: 10 µM Mg2+","relative to: high Mg2+ state, higher = stronger signaling",fold induction,1.2
